Measurements of several laboratories.
Compare with care: the assays were run in different laboratories. Values joined by “and” are separate records of one study, mostly repeats; a detail may differ. ± gives the spread as reported.
Kcnc1: Voltage-gated potassium channel KCNC1 (Kcnc1, Mus musculus, UniProt P15388)
HTR1D: 5-hydroxytryptamine receptor 1D (HTR1D, Homo sapiens, UniProt P28221)
LRRC8A: LRRC8A (Homo sapiens, UniProt Q8IWT6)
ERBB2: Receptor tyrosine-protein kinase erbB-2 (ERBB2, Homo sapiens, UniProt P04626)

CC(C)c1noc2ncc(C(=O)c3ccccc3O)cc12 gave an inhibition of 1.44% and 0% and 0.76% and 2.66% (Kcnc1; ion current, inhibitor, whole-cell patch clamp; 10 µM).
With COc1c(C#N)ccnc1N1C2CCC1CN(C(=O)c1cccnc1-n1cccn1)C2 the inhibition was -18.1% (GABA; binding; 10 µM).
O=C(NO)c1ccc(CN2CCCCc3ccccc32)c(F)c1 gave an inhibition of -33.9% (HTR1D; radioligand binding, PDSP radioligand binding; 10 µM).
With CC1=NNC(=S)NC(=O)C1/N=N/c1ccc(S(N)(=O)=O)cc1 (stereo not drawn) the inhibition was 31.3% (bovine α-glucosidase; enzyme activity, inhibitor, glucose oxidase; 100 µg/mL, with: maltose).
With Cc1c(-c2ccccc2)oc2ccccc2c1=O the inhibition was about 35% (LRRC8A; ion current, inhibitor; HEK293; 30 µM, with: hypotonic stimulation).
With CCN1/C(=C/C(C)=O)Sc2ccc(F)cc21 the inhibition was 0% (L-type calcium channel Dihydropyridine site, rat; radioligand binding; concentration not given).
With O=c1c(O)cc([C@H]2Oc3cc(O)cc(O)c3C[C@H]2O)cc2c([C@H]3Oc4cc(O)cc(O)c4C[C@H]3O)cc(O)c(O)c12 the inhibition was 35.1% (alpha-amylase; enzyme activity, inhibitor, DNS method; 50 µg/mL, with: soluble starch).
The inhibition of CC(=O)c1ccc(-c2cccc(NC(=O)CCc3cccc4c3B(O)OC4)c2)cc1 is reported as 96% (Cleavage and polyadenylation specificity factor subunit 3 (Cpsf3, Mus musculus, UniProt Q9QXK7); pre-mRNA cleavage; mouse nuclear extract; 200 µM).
CC1=NN(c2cccc(C)c2)C(=O)C1=NNc1ccc(S(N)(=O)=O)cc1 gave an inhibition of 44.2% (bovine α-glucosidase; enzyme activity, inhibitor, glucose oxidase; 500 µg/mL, with: maltose).
With Cc1nn(-c2nc3ccc(Cl)c(Cl)c3[nH]2)c(O)c1C1OC(=O)c2ccccc21 (stereo not drawn) the inhibition was 101% (Cgas (Mus musculus, UniProt Q8C6L5); enzyme activity, inhibitor, pyrophosphatase-coupled; 4 µM, 1.5 h, mouse enzyme).
For COc1cc(C2=CCCCc3c2ccc(OC)c3OCc2cnc([N+](=O)[O-])n2C)cc(OC)c1OC, the inhibition was 6.1 ± 3% (tubulin; colchicine binding; 5 µM, with: 5.0 µM [3H]colchicine).
CC1=NN(c2ccc(F)cc2)C(=O)C1=NNc1ccc(S(N)(=O)=O)cc1 gave an inhibition of 42.4% (bovine α-glucosidase; enzyme activity, inhibitor, glucose oxidase; 500 µg/mL, with: maltose).
For O=C(Nc1ccc(S(=O)(=O)N2CCC(Cl)CC2)cc1)c1ccc([N+](=O)[O-])o1, the inhibition was 21% (rat GABAA receptor; muscimol radioligand binding; brain; 10 µM).
With Cc1nc(Nc2ncc(C(=O)Nc3c(C)cccc3Cl)s2)cc(N2CCN(CCO)CC2)n1 the inhibition was 77.3% (ERBB2; kinase activity, inhibitor, Kinase-Glo MAX; 1 µM).
OCCCN1CC[C@@H]2C[C@H]1c1cc(-c3ccc(C(F)(F)F)cc3)ccc12 has an inhibition of under 50% (HTR1D; radioligand binding, PDSP competition binding; 10 µM).
For COc1cc2c(cc1OC)C(=O)N(CCCCN1CCN(c3ccccc3OC)CC1)C2, the inhibition was 87.6% (HTR1D; radioligand binding; concentration not given, with: [3H]5-CT).
Cc1nn(-c2nc3c(F)cc(F)cc3s2)c(O)c1C(c1ccc(C(F)(F)F)cc1)c1c(C)nn(-c2nc3c(F)cc(F)cc3s2)c1O has an inhibition of 84.7% (CGAS (Homo sapiens, UniProt Q8N884); enzyme activity, inhibitor, pyrophosphatase-coupled; 25 µM, 1.5 h, with: HT-DNA).
For CC1=NN(c2cc(Cl)ccc2Cl)C(=O)C1=NNc1ccc(S(N)(=O)=O)cc1, the inhibition was 38.5% (bovine α-glucosidase; enzyme activity, inhibitor, glucose oxidase; 500 µg/mL, with: maltose).
The inhibition of O=C(Nc1cccc2c(=O)cc(-c3nnn[nH]3)oc12)c1ccc(OCCCCc2ccccc2)cc1 is reported as 54% and 67.4% and 76.2% and 54.1% and 70.3% and 66.2% (LRRC8A/LRRC8C (Homo sapiens, UniProt Q8IWT6+Q8TDW0, L134K/L136K); ion current, whole-cell patch clamp; HCT LRRC8-/- cells; 3 µM, -100 mV, L134K/L136K heteromers).
The inhibition of Cc1cc2c(cc1N1C(=O)c3cccc4c(CCCO)ccc(c34)C1=O)n(C)c(=O)n2C (racemic) is reported as 53% (BAZ2A (Homo sapiens, UniProt Q9UIF9); binding, BROMOscan binding; 100 nM).
CC1=NCCNC(=O)C1=NNc1ccc(S(N)(=O)=O)cc1 gave an inhibition of 47.8% (bovine α-glucosidase; enzyme activity, inhibitor, glucose oxidase; 200 µg/mL, with: maltose).
COc1cc(Cl)c(C(=O)N[C@@H](CN[C@H]2CC[C@@H](N)CC2)Cc2ccc(C#N)cc2)cc1-c1ccc(CN[C@H](C)c2ccc(C)cc2)o1 gave an inhibition of 9% (HRH3 (Homo sapiens, UniProt Q9Y5N1); agonist response, antagonist; human cells; 10 µM, H3 antagonist).
For NC/C(=C\F)COc1cccc(Cn2c(=S)[nH]c(=O)c3[nH]cnc32)c1, the inhibition was 37% (Amine oxidase [copper-containing] 3 (Rattus norvegicus, UniProt O08590); rat adipose tissue; 0.0041 µM).
Clc1cncc(OC[C@H]2CN(CCN3CCc4ccccc43)CCO2)c1 has an inhibition of 35.4% (HTR1D; radioligand binding; concentration not given, with: [3H]5-CT).
CC1=NN(c2cccc([N+](=O)[O-])c2)C(=O)C1=NNc1ccc(S(N)(=O)=O)cc1 gave an inhibition of 54% (bovine α-glucosidase; enzyme activity, inhibitor, glucose oxidase; 500 µg/mL, with: maltose).
COc1ccccc1N1CCN(CCCCN2CCc3ccccc3C2=O)CC1 gave an inhibition of 88% (HTR1D; radioligand binding; concentration not given, with: [3H]5-CT).
N[C@@H](CS)C(=O)O: “log2 fold change” 0.0537 (binding, MIDAS equilibrium dialysis LC-MS; A2AR-BRIL thermostabilized; concentration not given; baseline: no-protein control).
The inhibition of CN(C)c1ccc2cc(C(=O)NS(=O)(=O)c3ccccc3-c3ccccc3)oc2c1 is reported as at most 50% (kinase panel; 10 µM, 366 kinases).
With Cc1ccc(OC[C@@H]2CN(CCN3CCc4ccccc43)CCO2)cn1 the inhibition was 37.1% (HTR1D; radioligand binding; concentration not given, with: [3H]5-CT).
With CC1=NNC(=O)C1=NNc1ccc(S(N)(=O)=O)cc1 the inhibition was 38% (bovine α-glucosidase; enzyme activity, inhibitor, glucose oxidase; 100 µg/mL, with: maltose).
CC[C@@H]1[C@H](F)C(=O)N[C@@H]1COc1nccc2cc(C(N)=O)c(OC)cc12 has an inhibition of 6.6% (CDK10 (Homo sapiens, UniProt Q15131); ATP-site probe binding, ActivX profiling; THP-1 cell lysate; 0.04 mM, Lys2 site).
For CN1CCN(c2cc(-c3ccncc3)c(-c3ccc4ccccc4c3)nn2)CC1, the inhibition was 3.5% (PTGER3 (Homo sapiens, UniProt P43115); antagonist, FLIPR; 10 µM).
COc1ccc2c(c1)C(=O)N(CCN1CCN(c3ccccc3OC)CC1)C2 gave an inhibition of 93.8% (HTR1D; radioligand binding; concentration not given, with: [3H]5-CT).
COc1cc(-c2cc(C(C)=O)n3ccccc23)c(OC)cc1Cn1ccnc1 gave an inhibition of 35.4% (CREBBP (Homo sapiens, UniProt Q92793); 1 µM).
With Cc1ccc(C(=O)Nc2ccc3ccccc3c2)o1 the inhibition was 15.2% (Kcnc1; ion current, whole-cell patch-clamp; 10 µM).
For NC(=O)c1nnn(Cc2cc(Cl)c(C(=O)c3ccc(Cl)cc3)c(Cl)c2)c1N, inhibition read “inhibited” (CACNA1C (Homo sapiens, UniProt Q13936); calcium channel current, blocker; concentration not given).
The inhibition of O=C(CN1CCO[C@H](COc2cccnc2)C1)N1CCc2ccccc21 is reported as -6.8% (HTR1D; radioligand binding; concentration not given, with: [3H]5-CT).
For CC1=NOC(=O)C1=NNc1ccc(S(N)(=O)=O)cc1, the inhibition was 33.075 ± 0.0014% (bovine α-glucosidase; enzyme activity, inhibitor, glucose oxidase; 10 µg/mL, with: maltose).
CN(C(=O)n1cnc(-c2ccc[n+]([O-])c2)c1)C1CCCCC1 has an inhibition of 2.05% (Nociceptin receptor (OPRL1, Homo sapiens, UniProt P41146); binding; 10 µM).
[2H]c1cc(C)c(NC(=O)c2cnc(Nc3cc(N4CCC(O)CC4)nc(C)n3)s2)c(Cl)c1 gave an inhibition of under 50% (ERBB2; 0.001 µM).
O=C(O)c1cc(=O)[nH]c(=O)[nH]1 — result for “log2 fold change”: -0.0106 (binding, MIDAS equilibrium dialysis LC-MS; A2AR-BRIL thermostabilized; concentration not given; baseline: no-protein control).
With COc1cc(C2=CCCc3c2ccc(OC)c3OCc2cnc([N+](=O)[O-])n2C)cc(OC)c1OC the inhibition was 9.6 ± 1% (tubulin; colchicine binding; 5 µM, with: 5.0 µM [3H]colchicine).
The inhibition of Cc1ccnc(C)c1OC[C@H]1CN(CCN2CCc3ccccc32)CCO1 is reported as 34.5% (HTR1D; radioligand binding; concentration not given, with: [3H]5-CT).
c1ccc(-c2nc(N3CCC(c4ccccn4)C3)c3ccccc3n2)nc1 (stereo not drawn) has an inhibition of under 50% (panel of 300 kinases; TR-FRET binding; 1 µM, across all kinases).
Cc1ncccc1OC[C@H]1CN(CCN2CCc3ccccc32)CCO1 gave an inhibition of 23.4% (HTR1D; radioligand binding; concentration not given, with: [3H]5-CT).
Cc1c(-c2ccccc2)oc2c(C(=O)OCCN3CCCCC3)cccc2c1=O has an inhibition of about 78% (LRRC8A; ion current, inhibitor; HEK293; 30 µM, with: hypotonic stimulation).
Under “log2 fold change”, Cn1cc(-c2ccc(-c3cncc(Cl)c3N3CCC4(CCNC4=O)CC3)cc2)cn1 is recorded as 1.56 (COLO 205; gene expression, microarray, measured: KLF10 mRNA; concentration not given, 6 h; baseline: untreated cells).
For O=C(/C=C/c1cccnc1)NCCCCC1CCN(C(=O)c2ccccc2)CC1, inhibition read “no inhibition” (NMNAT1 human; enzyme activity, coupled alcohol dehydrogenase counter-screen; concentration not given, with: 50 µM NMN).

Excerpt of the above:
Cc1nn(-c2nc3c(F)cc(F)cc3s2)c(O)c1C(c1ccc(C(F)(F)F)cc1)c1c(C)nn(-c2nc3c(F)cc(F)cc3s2)c1O has an inhibition of 84.7% (CGAS (Homo sapiens, UniProt Q8N884); enzyme activity, inhibitor, pyrophosphatase-coupled; 25 µM, 1.5 h, with: HT-DNA).
For CC1=NN(c2cc(Cl)ccc2Cl)C(=O)C1=NNc1ccc(S(N)(=O)=O)cc1, the inhibition was 38.5% (bovine α-glucosidase; enzyme activity, inhibitor, glucose oxidase; 500 µg/mL, with: maltose).
